Measured values pooled from the literature.
Parts stem from different laboratories: compare values within a part only.

Set 1 — method: RNA Bind-n-Seq; form: RNA; matrix: in vitro; tested at: not given; relative to: input RNA pool; direction: higher = stronger binding
Target: RING finger protein unkempt homolog, zinc fingers 1-6, GST-SBP tag (UNK, Homo sapiens, UniProt Q9C0B0, residues 30-357)
Sequence of UniProt Q9C0B0 (30-357, looked up): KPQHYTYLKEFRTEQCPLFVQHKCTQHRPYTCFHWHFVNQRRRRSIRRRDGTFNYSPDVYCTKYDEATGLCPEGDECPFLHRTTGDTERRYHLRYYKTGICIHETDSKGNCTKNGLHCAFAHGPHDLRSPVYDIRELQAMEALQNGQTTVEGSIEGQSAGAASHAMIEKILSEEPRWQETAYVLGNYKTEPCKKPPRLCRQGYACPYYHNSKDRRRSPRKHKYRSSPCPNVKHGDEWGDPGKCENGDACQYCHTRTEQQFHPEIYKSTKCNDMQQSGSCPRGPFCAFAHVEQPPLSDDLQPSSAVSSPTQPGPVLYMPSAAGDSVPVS
Notes: RNA with constant flanks, human and mouse sites, ends assumed
Sequence | bound/input enrichment
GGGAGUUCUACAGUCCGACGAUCUUGUUUAUUUUAUAUUUGUGUUUUAAGUAAUUUGCAUUGGCUGUUUAUAUUUUCCUUAUAUUUUAAAUAAUCUCCGCUUGGAAGGACUUUGGAAGUGUAUGUGAGAAGUCCUUUCCAUCUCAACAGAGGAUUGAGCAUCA | 1.8 ratio
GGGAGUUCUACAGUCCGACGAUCAAGCUCCCAGUGUGGGUGGUGGAGGAUCAUCAGGAGGUUCUACCCUUUAUAUACCGGGCCAUAGGCUCAAAGCAUCUUCCUGCCAGUAAUGUAAGUUUUUUACAUUUCGACUCACAUCCACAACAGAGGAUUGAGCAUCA | 0.185 ratio
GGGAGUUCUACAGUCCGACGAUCUCUGACCUACACACACACACACACUAAAUGUUUUAUAAAAAAAAAAAAAAAAAAAAGCCAGAGGUGGUGGCAUACAUCUUUAAUCCCAUCACUUAGGAGGCAGAGGCAGAUGGAUCUCUUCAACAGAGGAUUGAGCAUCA | 6.12 ratio
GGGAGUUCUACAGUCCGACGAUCUGUGUCCACAUAUUUGUCCAUUUGUCUGUGUACAAUCAGUCCUGGUGAUCACAUGGACUAUAUAGUCCACAUCUCUGUAUCUUGCUGGAAAGAACCCAAAGGAGCAUCGUAUGGACACUUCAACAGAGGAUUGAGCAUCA | 0.266 ratio
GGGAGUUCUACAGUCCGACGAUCCUUCAGCUGUCUACACCACAGAAAGCAAGUCAACACCAAGUUUUAUUUUUGUUAUCAGAUGUAGCACAUGCUAAGAAUCCCACCCAUUCCAAUAAAAAACUACCUACCUCUGCUUCAGUUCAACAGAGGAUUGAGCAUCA | 0.177 ratio
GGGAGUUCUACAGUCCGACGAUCAAGACACUGAUAGAGGCAGGCCUCCCACAGAAGGUGGCAGAAAGACUUGAUGAAAUAUUUCAGACAGGAUUGGUAGCUUAUGUGGAUCUUGAUGAAAGAGCAAUCGAUGCUCUCAGGGAGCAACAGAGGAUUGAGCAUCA | 0.319 ratio
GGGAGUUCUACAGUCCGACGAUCCGGCUGUCUCCCUCGGCAGCCACCCCAUUCUUCCUGCUGUCCGGCCUGUGUGCUUUCUUUUUUUAUUUCAAACGGACAUUGUAAAAGAAAACAAACUACCUUCUGUUCUAAAGGAUACUGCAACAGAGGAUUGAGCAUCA | 0.43 ratio
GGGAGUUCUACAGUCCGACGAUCCAUGGGUUUUAAGUGCUUGUGGCUCACUGAAGCUUAAGUGAGGAUUUCCUUGCAAUGAGUAGAAUUUCCCUUCUCUCCCUUGUCACAGGUUUAAAAACCUCACAGCUUGUAUAAUGUAACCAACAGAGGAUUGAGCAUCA | 0.16 ratio

Set 2 — method: RNA Bind-n-Seq; form: RNA; matrix: in vitro; tested at: 365 nM; relative to: no-protein control; direction: higher = stronger binding
Target: RNA binding protein fox-1 homolog 2, RRM domain, GST-SBP tag (RBFOX2, Homo sapiens, UniProt O43251-10, residues 100-194)
Notes: natural RNA segment, single round, ends assumed
Construct (chain): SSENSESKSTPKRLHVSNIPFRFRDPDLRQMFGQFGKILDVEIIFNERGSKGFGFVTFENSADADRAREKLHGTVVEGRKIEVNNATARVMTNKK
Sequence | RBNS enrichment (R)
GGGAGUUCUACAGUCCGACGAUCGAAGAAAACAUUUGAAUUUACCUUCAUAUGCCACUAAGAACAAAAGCUCUGAAGUUCUUCCUGCUGGCACCAAAUAUUAGGAUUACAAGCUGUCUCUCUGACACCAGUGGUGGAAUUCUCGGGUGCCAA | 0.236
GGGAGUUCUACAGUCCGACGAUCAGAUACGAAAUCAGUUUCUCAAACUGAGCUUCAGAAAGGGGCAUUUUGUACUCUUGUUUUUGCAUAACUGGUUUUGUUUUUUUGCAGAAUUAACUAUAACAAUCACUGGCUGGAAUUCUCGGGUGCCAA | 0.497
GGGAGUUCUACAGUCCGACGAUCCUCAUCCCUUGCCAAGCUUCUCUUAGGAUUGGUUUGCAGGGUAUAGAAUCCCAUCACGCGUGGGAAAAUAAAUGAAUACACUAAGAAAAGGGUGGCAUUUGAUUAAGUGAUGGAAUUCUCGGGUGCCAA | 0.512
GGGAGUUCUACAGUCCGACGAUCUUCAUGGCUCACCCCUCUGUGUCCAGCAUCUAACCUUUUACUUCUGUGUAGGAAAUAAUUUAAUUACAAGUCCAGGAAUGGUCUGCUCUACUCAUGGGUGGAGGAGACCAUGGAAUUCUCGGGUGCCAA | 0.401
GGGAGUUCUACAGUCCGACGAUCGAAGUCUUCUGCUCACCCUUCCUUAAAGAUCAGAUAAACUUGUCAUCCCUUCCCAGCAAUGAUGACAGGAAAAUGGAAGUGGCAAGUUUUCCUUCUAGUAUCCGAAGAAUUGGAAUUCUCGGGUGCCAA | 0.328
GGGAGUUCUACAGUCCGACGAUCGCCUGCCACCCCCUGACAAAAACAGGUUCCACAGUGCUACCCUUGCUUCCUGCCCCUUGAGGUGGGCCAGGCUGGCUCCUGGCUAUGCAGGGAUCUCUGGUCCCCAGGAGUGGAAUUCUCGGGUGCCAA | 0.385
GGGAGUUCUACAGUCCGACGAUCAGCUGUGAUCCAGGAUGGCAUGCUCACGUGCGGAAUGCAAUUUUGCCACCGGUUUGUAAUGUGGGUUUUGUUUCUCUCUAGACUUGCCUCUCACUGCUUUUUGUCUGAAAUGGAAUUCUCGGGUGCCAA | 4.82
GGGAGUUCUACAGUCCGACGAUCUGUUUUAUAUUCUUUUGUAGUAAAACAACAUAACUCAGAUUUCUACAGGAGACAGUGGUUUUAUUCGGAUUGUCUUCUGUAAUAGGUUUCAAUAAAGCUGGAUGAACUUAUGGAAUUCUCGGGUGCCAA | 0.276

Set 3 — method: RNA Bind-n-Seq; form: RNA; matrix: in vitro; tested at: 200 nM; notes: whole 134-nt RNA, ends assumed; with: 150 mM KCl; relative to: input library; direction: higher = stronger binding
Target: Ras GTPase-activating protein-binding protein 1, full length (G3BP1, Homo sapiens, UniProt Q13283)
Sequence of UniProt Q13283 (whole entry, looked up): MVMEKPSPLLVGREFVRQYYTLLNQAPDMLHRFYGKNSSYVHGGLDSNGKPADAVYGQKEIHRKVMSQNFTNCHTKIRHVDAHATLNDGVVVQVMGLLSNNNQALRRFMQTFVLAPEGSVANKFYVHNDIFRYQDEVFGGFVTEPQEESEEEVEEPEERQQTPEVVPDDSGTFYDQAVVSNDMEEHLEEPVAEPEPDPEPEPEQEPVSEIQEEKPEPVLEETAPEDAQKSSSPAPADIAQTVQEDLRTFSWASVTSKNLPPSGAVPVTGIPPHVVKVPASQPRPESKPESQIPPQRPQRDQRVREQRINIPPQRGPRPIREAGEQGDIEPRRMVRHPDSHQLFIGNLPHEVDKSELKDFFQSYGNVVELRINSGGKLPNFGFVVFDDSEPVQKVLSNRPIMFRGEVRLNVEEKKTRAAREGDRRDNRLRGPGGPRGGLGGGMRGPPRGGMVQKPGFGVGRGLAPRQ
Sequence | log2 enrichment
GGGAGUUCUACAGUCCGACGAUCUGGCCCGCCGUCCUGAGGAAGCUGAGGUUCACUGCGGUGCCCAAGAACCACCAGGCGGUCCGGAACCCGUGAGCGGCUGCCAGGGGCUCUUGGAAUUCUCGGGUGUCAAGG | 0.405
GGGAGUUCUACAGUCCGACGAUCUAACUUUAGAGGAGGAUCUGAUGGAUAUGCCAGUGGACGUGGAUUUGGGGAUGGCUAUAAUGGGUAUGGAGGAGGACCUGGAGGUGGCAAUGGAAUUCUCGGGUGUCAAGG | 0.332
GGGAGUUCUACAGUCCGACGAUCAGUCCUGUGCUACACAUCGUAUGUACCGAAUCGGGGUGGGGAAAGGGGAAAAAGGGGAAAGUAUUAUGUUACGCCGUUCGGAUCUGCACUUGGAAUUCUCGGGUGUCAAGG | 0.472
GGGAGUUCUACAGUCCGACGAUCCAAGUCCUGUGCUACACAUCGUAUGUACCGAAUCGGUUUUUGGUUUUUUUGGAGGAAAGUAUUAUGUUACGCCGUUCGGAUCUGCACUUCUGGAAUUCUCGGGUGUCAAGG | -0.737
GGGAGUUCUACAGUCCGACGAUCUGUCAGGAUUAUGAAGAAGCUGUGCUCUUGCUGUUAGAAGGAGCUGCCUGGGAAGAAGCUUUGAGGCUGGUAAGAAUCUUGUAAAUCCUCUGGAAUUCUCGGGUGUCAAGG | -1.13
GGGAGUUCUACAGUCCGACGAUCUGUGCUACACAUCGUAUGUACCGAAUCGGGGAAAAAAAGGGGAAAAAAAGGGGAAAAAAAGGGAAAGUAUUAUGUUACGCCGUUCGGAUCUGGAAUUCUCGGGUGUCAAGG | -0.439
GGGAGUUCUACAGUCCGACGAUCCACAGACAACACGCACCCACACAGACACAGAGGGAAGGGGUUGGGAUGGGGACAGGGUGCACAGCAAAACGGGGUAGGACCCCAGCCCCUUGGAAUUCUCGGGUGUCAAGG | 1.97
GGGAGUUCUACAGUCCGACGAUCUCCUGUGCUACACAUCGUAUGUACCGAAUCGGGGAAAAAGGGAAAAAGGGGAAAAAGGGGAAAGUAUUAUGUUACGCCGUUCGGAUCUGCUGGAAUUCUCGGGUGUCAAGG | 0.364
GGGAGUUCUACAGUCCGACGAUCUCCUGUGCUACACAUCGUAUGUACCGAAUCGGGUUUUUUUGGGUUUUUUUGGGAAAGGGAAAGUAUUAUGUUACGCCGUUCGGAUCUGCAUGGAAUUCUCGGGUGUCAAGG | -0.289

Set 4 — method: universal PBM; form: double-stranded DNA, one strand shown; matrix: in vitro; tested at: 600 nM; direction: higher = stronger binding
Target: Sal-like protein 4, full length isoform A (SALL4, Homo sapiens, UniProt Q9UJQ4, residues 1-1053)
Sequence of UniProt Q9UJQ4 (whole entry, looked up): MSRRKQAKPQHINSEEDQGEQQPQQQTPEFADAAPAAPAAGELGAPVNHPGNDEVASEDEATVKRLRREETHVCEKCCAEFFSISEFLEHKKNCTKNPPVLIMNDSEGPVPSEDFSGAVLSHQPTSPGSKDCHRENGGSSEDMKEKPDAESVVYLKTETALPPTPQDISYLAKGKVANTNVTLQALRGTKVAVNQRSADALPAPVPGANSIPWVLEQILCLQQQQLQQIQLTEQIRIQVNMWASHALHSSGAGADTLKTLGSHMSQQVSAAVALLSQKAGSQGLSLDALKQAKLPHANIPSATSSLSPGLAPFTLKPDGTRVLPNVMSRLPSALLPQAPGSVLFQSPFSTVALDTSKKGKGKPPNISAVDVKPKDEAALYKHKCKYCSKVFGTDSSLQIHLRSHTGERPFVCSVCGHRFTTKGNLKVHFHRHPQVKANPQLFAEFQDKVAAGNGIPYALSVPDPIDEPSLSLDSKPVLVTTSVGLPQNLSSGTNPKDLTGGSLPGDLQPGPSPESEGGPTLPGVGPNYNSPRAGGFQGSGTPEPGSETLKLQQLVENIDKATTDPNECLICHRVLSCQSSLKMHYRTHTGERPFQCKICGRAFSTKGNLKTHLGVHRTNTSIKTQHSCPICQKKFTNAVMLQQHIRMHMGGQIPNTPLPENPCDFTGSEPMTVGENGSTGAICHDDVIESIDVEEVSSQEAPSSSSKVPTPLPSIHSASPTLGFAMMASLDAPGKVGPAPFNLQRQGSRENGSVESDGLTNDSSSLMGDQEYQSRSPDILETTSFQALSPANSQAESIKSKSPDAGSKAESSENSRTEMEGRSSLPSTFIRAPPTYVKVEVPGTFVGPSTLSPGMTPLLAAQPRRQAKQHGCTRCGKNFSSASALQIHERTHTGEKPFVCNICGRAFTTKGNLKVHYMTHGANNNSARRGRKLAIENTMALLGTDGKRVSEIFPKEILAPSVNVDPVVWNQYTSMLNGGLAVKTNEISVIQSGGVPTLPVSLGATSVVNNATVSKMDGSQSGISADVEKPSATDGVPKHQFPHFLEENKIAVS
Notes: 8-mer, flanks averaged, mean of replicates
Sequence | E-score
ACAAGATC | 0.043
GAGGTTCC | -0.164
ATGGCCCA | -0.0722
CATAAGAG | 0.211
ACTCTCCG | 0.0118
GAGGGTCA | -0.23
AACTCCAT | 0.0351
CACGTCCG | -0.242
GTTGGAAA | 0.0826
CGAAAACA | -0.0283
GTAGCAGA | 0.00302
CTGGCATA | -0.0109
CACTCTGA | -0.18
GTCGCTAA | 0.0328
ACGAGCCG | -0.203

A few entries again (set 1):
Sequence | bound/input enrichment
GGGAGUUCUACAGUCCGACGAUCAAGCUCCCAGUGUGGGUGGUGGAGGAUCAUCAGGAGGUUCUACCCUUUAUAUACCGGGCCAUAGGCUCAAAGCAUCUUCCUGCCAGUAAUGUAAGUUUUUUACAUUUCGACUCACAUCCACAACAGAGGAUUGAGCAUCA | 0.185 ratio
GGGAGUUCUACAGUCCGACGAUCUCUGACCUACACACACACACACACUAAAUGUUUUAUAAAAAAAAAAAAAAAAAAAAGCCAGAGGUGGUGGCAUACAUCUUUAAUCCCAUCACUUAGGAGGCAGAGGCAGAUGGAUCUCUUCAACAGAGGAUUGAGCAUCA | 6.12 ratio
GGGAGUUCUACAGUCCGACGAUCUGUGUCCACAUAUUUGUCCAUUUGUCUGUGUACAAUCAGUCCUGGUGAUCACAUGGACUAUAUAGUCCACAUCUCUGUAUCUUGCUGGAAAGAACCCAAAGGAGCAUCGUAUGGACACUUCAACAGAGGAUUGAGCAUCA | 0.266 ratio
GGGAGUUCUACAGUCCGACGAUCCUUCAGCUGUCUACACCACAGAAAGCAAGUCAACACCAAGUUUUAUUUUUGUUAUCAGAUGUAGCACAUGCUAAGAAUCCCACCCAUUCCAAUAAAAAACUACCUACCUCUGCUUCAGUUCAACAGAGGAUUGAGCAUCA | 0.177 ratio
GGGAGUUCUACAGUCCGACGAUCAAGACACUGAUAGAGGCAGGCCUCCCACAGAAGGUGGCAGAAAGACUUGAUGAAAUAUUUCAGACAGGAUUGGUAGCUUAUGUGGAUCUUGAUGAAAGAGCAAUCGAUGCUCUCAGGGAGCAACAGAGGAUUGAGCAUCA | 0.319 ratio
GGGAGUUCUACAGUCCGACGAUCCGGCUGUCUCCCUCGGCAGCCACCCCAUUCUUCCUGCUGUCCGGCCUGUGUGCUUUCUUUUUUUAUUUCAAACGGACAUUGUAAAAGAAAACAAACUACCUUCUGUUCUAAAGGAUACUGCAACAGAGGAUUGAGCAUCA | 0.43 ratio
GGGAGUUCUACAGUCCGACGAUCCAUGGGUUUUAAGUGCUUGUGGCUCACUGAAGCUUAAGUGAGGAUUUCCUUGCAAUGAGUAGAAUUUCCCUUCUCUCCCUUGUCACAGGUUUAAAAACCUCACAGCUUGUAUAAUGUAACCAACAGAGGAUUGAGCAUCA | 0.16 ratio
